Assay results pooled from the literature.
Protocols differ between the studies behind these lines. ± gives the spread as reported.

N=C(N)NCCC[C@@H]1NC(=O)[C@H](CCCCNC(=O)CC[C@H](NC(=O)CCOCCOCCOCCOCCNC(=O)CC[C@H](NC(=O)CN2CCN(CC(=O)O)CCN(CC(=O)O)CCN(CC(=O)O)CC2)C(=O)NCCOCCOCCOCCOCCC(=O)N[C@@H](CCC(=O)NCCCC[C@@H]2NC(=O)[C@@H](Cc3ccccc3)NC(=O)[C@H](CC(=O)O)NC(=O)CNC(=O)[C@H](CCCNC(=N)N)NC2=O)C(=O)NCCCC[C@@H]2NC(=O)[C@@H](Cc3ccccc3)NC(=O)[C@H](CC(=O)O)NC(=O)CNC(=O)[C@H](CCCNC(=N)N)NC2=O)C(=O)NCCCC[C@@H]2NC(=O)[C@@H](Cc3ccccc3)NC(=O)[C@H](CC(=O)O)NC(=O)CNC(=O)[C@H](CCCNC(=N)N)NC2=O)NC(=O)[C@@H](Cc2ccccc2)NC(=O)[C@H](CC(=O)O)NC(=O)CNC1=O [indium-111 labelled] — tissue uptake (female athymic nude mice, spleen; intravenous, 3 µCi, 1 h, U-87 MG glioma xenograft): 2.47 ± 0.66 %ID/g
C[C@@H](O)[C@H](NC(=O)[C@@H]1CSSC[C@H](NC(=O)[C@@H](Cc2ccccc2)NC(=O)CN2CCN(CC(N)=O)CCN(CC(N)=O)CCN(CC(N)=O)CC2)C(=O)N[C@@H](Cc2ccc(O)cc2)C(=O)N[C@H](Cc2c[nH]c3ccccc23)C(=O)N[C@@H](CCCCN)C(=O)N[C@@H]([C@@H](C)O)C(=O)N1)C(=O)O [lead-212 labelled] — mortality (CD-1 mice; 2 x 20 µCi, three-week interval, within four weeks): 50%
N=C(N)NCCC[C@H](NC(=O)[C@H](CCCCN)NC(=O)[C@H](CCC(N)=O)NC(=O)CCOCCOCCOCCNC(=O)CN1CCN(CC(=O)O)CCN(CC(=O)O)CCN(CC(=O)O)CC1)C(=O)N[C@@H](CCCCN)C(=O)N[C@@H](CCCNC(=N)N)C(=O)N[C@@H](CCCCN)C(=O)N[C@@H](CCCCN)C(=O)N[C@@H](CO)C(=O)N[C@@H](CCCNC(=N)N)C(=O)N[C@@H](Cc1ccc(O)cc1)C(=O)N[C@@H](CCCCN)C(=O)N[C@@H](CO)C(=O)O [copper-64 labelled] — blood half-life (mice, B16-F10 melanoma; intravenous): ~0.367 h
N=C(N)NCCC[C@@H]1NC(=O)[C@H](CCCCNC(=O)CNC(=O)CNC(=O)CNC(=O)CC[C@H](NC(=O)c2ccc(NN=Cc3ccccc3S(=O)(=O)O)nc2)C(=O)NCC(=O)NCC(=O)NCC(=O)NCCCC[C@@H]2NC(=O)[C@@H](Cc3ccccc3)NC(=O)[C@H](CC(=O)O)NC(=O)CNC(=O)[C@H](CCCNC(=N)N)NC2=O)NC(=O)[C@@H](Cc2ccccc2)NC(=O)[C@H](CC(=O)O)NC(=O)CNC1=O [technetium-99m labelled] — tissue uptake (athymic nu/nu mouse, female, U-87 MG glioma xenograft, muscle; intravenous, 30 min): 2.72 ± 0.33 %ID/g
N=C(N)NCCC[C@@H]1NC(=O)[C@H](CCCCNC(=O)CC[C@H](NC(=O)CCOCCOCCOCCOCCNC(=O)CN2CCN(CC(=O)O)CCN(CC(=O)O)CCN(CC(=O)O)CC2)C(=O)NCCCC[C@@H]2NC(=O)[C@@H](Cc3ccccc3)NC(=O)[C@H](CC(=O)O)NC(=O)CNC(=O)[C@H](CCCNC(=N)N)NC2=O)NC(=O)[C@@H](Cc2ccccc2)NC(=O)[C@H](CC(=O)O)NC(=O)CNC1=O [indium-111 labelled] — tissue uptake (female athymic nude mice, brain; intravenous, 3 µCi, 24 h, U-87 MG glioma xenograft): 0.06 %ID/g
Cc1ncsc1-c1ccc(CNC(=O)[C@@H]2C[C@@H](OC(=O)OCCSSCCn3cc(CCCC(=O)N[C@@H](Cc4ccc(O)cc4)C(=O)N[C@@H](CCCNC(=N)N)C(=O)N[C@@H](CCCNC(=N)N)C(=O)N[C@@H](CCCNC(=N)N)C(=O)N[C@@H](CCCNC(=N)N)C(=O)N[C@@H](CCCNC(=N)N)C(=O)N[C@@H](CCCNC(=N)N)C(=O)N[C@@H](CCCNC(=N)N)C(=O)N[C@@H](CCCNC(=N)N)C(=O)N[C@@H](CCCNC(=N)N)C(N)=O)nn3)CN2C(=O)[C@@H](NC(=O)COCCOCCOCCNC(=O)C[C@@H]2N=C(c3ccc(Cl)cc3)c3c(sc(C)c3C)-n3c(C)nnc32)C(C)(C)C)cc1 — remaining intact compound (UHPLC; PBS; 100 nM, 24 h, 37 °C, added: 5 mM glutathione; baseline: total peak area): 0%
C[C@@H]1NC(=O)[C@H](CCC(=O)O)NC(=O)CNC(=O)[C@H](CC(=O)O)NC(=O)CNC(=O)[C@H](CCCCNC(=O)CCCCCNC(=O)[C@H](CS)NC(=O)CCCCCNC(=O)CN2CCN(CC(=O)O)CCN(CC(=O)O)CCN(CC(=O)O)CC2)NC(=O)[C@@H](Cc2ccc(O)cc2)NC1=O [gallium-68 labelled] — soluble radioactivity (mouse serum; concentration not given, 1.5 h, 37 °C, 90% serum): 87%
CCCC[C@H](NC(=O)CNC(=O)[C@H](CO)NC(=O)CNC(=O)c1ccc(NN)nc1)C(=O)N[C@H]1CC(=O)NCCCC[C@@H](C(N)=O)NC(=O)[C@H](Cc2c[nH]c3ccccc23)NC(=O)[C@H](CCCNC(=N)N)NC(=O)[C@@H](Cc2ccccc2)NC(=O)[C@H](Cc2c[nH]cn2)NC1=O [technetium-99m labelled] — uptake ratio (C57 mouse, B16/F1 melanoma; 2 h; baseline: tumour over muscle): 147
CCCC[C@H](NC(=O)CNC(=O)CNC(=O)c1ccc(NN)nc1)C(=O)N[C@H]1CC(=O)NCCCC[C@@H](C(N)=O)NC(=O)[C@H](Cc2c[nH]c3ccccc23)NC(=O)[C@H](CCCNC(=N)N)NC(=O)[C@@H](Cc2ccccc2)NC(=O)[C@H](Cc2c[nH]cn2)NC1=O [technetium-99m labelled] — tissue uptake (C57 mouse, B16/F1 melanoma-bearing, heart; intravenous, 24 h): 0.02 ± 0.02 %ID/g
CC[C@@]1(OC(=O)CCC(=O)NCCCC[C@H](NC(=O)[C@H](Cc2ccccc2)NC(=O)[C@H](Cc2ccccc2)NC(=O)CCSC2=C(/C=C/C3=[N+](C)c4ccccc4C3(C)C)CCC/C2=C\C=C2\N(C)c3ccccc3C2(C)C)C(=O)N[C@@H](CCCCNC(=O)CCCC[C@@H]2SC[C@@H]3NC(=O)N[C@@H]32)C(=O)O)C(=O)OCc2c1cc1n(c2=O)Cc2cc3ccccc3nc2-1 — time to plateau tumour signal (fluorescence imaging; BALB/c nude mice with 4T1 tumour; intravenous, 0.05 µmol/kg): 24 h
N=C(N)NCCC[C@@H]1NC(=O)[C@H](CCCCNC(=O)CCOCCOCCOCCOCCNC(=O)CN2CCN(CC(=O)O)CCN(CC(=O)O)CCN(CC(=O)O)CC2)NC(=O)[C@@H](Cc2ccccc2)NC(=O)[C@H](CC(=O)O)NC(=O)CNC1=O [indium-111 labelled] — tumour to tissue ratio (athymic nude mice, female, U-87 MG glioma xenograft, tumour and liver; intravenous, 1 h; baseline: tumour over liver): 2.55 ± 0.42
CSCC[C@H](NC(=O)[C@H](CC(C)C)NC(=O)[C@H](Cc1c[nH]cn1)NC(=O)CNC(=O)[C@@H](NC(=O)[C@H](C)NC(=O)[C@H](Cc1c[nH]c2ccccc12)NC(=O)[C@H](CCC(N)=O)NC(=O)CCCCCNC(=O)CNC(=O)CNC(=O)CNC(=O)CSC(C)=O)C(C)C)C(N)=O [technetium-99m labelled] — tissue uptake (nude mouse, PC-3 xenograft, blood; 90 min, added: excess unlabelled conjugate): 0.13 ± 0.03 %ID/g
C[C@@H](O)[C@@H]1NC(=O)[C@H](CCCCN)NC(=O)[C@@H](Cc2c[nH]c3ccccc23)NC(=O)[C@H](Cc2ccc(O)cc2)NC(=O)[C@@H](NC(=O)[C@@H](Cc2ccccc2)NC(=O)c2ccc(C[C@H]3CN(CC(=O)O)CCN(CC(=O)O)CCN(CC(=O)O)CCN3CC(=O)O)cc2)CSSC[C@@H](C(=O)N[C@H](CO)[C@@H](C)O)NC1=O [gallium-67 labelled] — remaining intact (radio-TLC; mouse plasma; 3 h, 37 °C, 67Ga-labelled): 97.4 ± 0.4%
N=C(N)NCCC[C@@H]1NC(=O)[C@H](CCCCNC(=O)CCOCCOCCOCCOCCNC(=O)CC[C@H](NC(=O)CCOCCOCCOCCOCCNC(=O)CC[C@H](NC(=O)CN2CCN(CC(=O)O)CCN(CC(=O)O)CCN(CC(=O)O)CC2)C(=O)NCCOCCOCCOCCOCCC(=O)N[C@@H](CCC(=O)NCCOCCOCCOCCOCCC(=O)NCCCC[C@@H]2NC(=O)[C@@H](Cc3ccccc3)NC(=O)[C@H](CC(=O)O)NC(=O)CNC(=O)[C@H](CCCNC(=N)N)NC2=O)C(=O)NCCOCCOCCOCCOCCC(=O)NCCCC[C@@H]2NC(=O)[C@@H](Cc3ccccc3)NC(=O)[C@H](CC(=O)O)NC(=O)CNC(=O)[C@H](CCCNC(=N)N)NC2=O)C(=O)NCCOCCOCCOCCOCCC(=O)NCCCC[C@@H]2NC(=O)[C@@H](Cc3ccccc3)NC(=O)[C@H](CC(=O)O)NC(=O)CNC(=O)[C@H](CCCNC(=N)N)NC2=O)NC(=O)[C@@H](Cc2ccccc2)NC(=O)[C@H](CC(=O)O)NC(=O)CNC1=O [indium-111 labelled] — tumour to tissue ratio (athymic nude mice, female, U-87 MG glioma xenograft, tumour and lungs; intravenous, 72 h; baseline: tumour over lungs): 4.7 ± 0.86
CCCC[C@H](NC(=O)CCCCCCCNC(=O)c1ccc(NN)nc1)C(=O)N[C@H]1CC(=O)NCCCC[C@@H](C(N)=O)NC(=O)[C@H](Cc2c[nH]c3ccccc23)NC(=O)[C@H](CCCNC(=N)N)NC(=O)[C@@H](Cc2ccccc2)NC(=O)[C@H](Cc2c[nH]cn2)NC1=O [technetium-99m labelled] — uptake (C57 mouse, B16/F1 melanoma, tumor; intravenous, 0.5 h): 23.4 ± 3.37 %ID/g
CC(C)C[C@@H]1NC(=O)[C@H](C(C)C)NC(=O)[C@H](CO)NC(=O)CNC(=O)CNC(=O)[C@H](CCCNC(=N)N)NC(=O)[C@@H]2CCCN2C(=O)[C@@H](NC(=O)CC[C@H](NC(=O)c2ccc(N(C)Cc3cnc4nc(N)nc(N)c4n3)cc2)C(=O)O)C(C)(C)SSC[C@@H](C(=O)O)NC(=O)CNC(=O)[C@H]([C@@H](C)O)NC(=O)[C@H](C(C)C)NC1=O — half-life (acetate buffer; 100 µM, pH 4.0, 70 °C): 217 h

Some of these lines once more:
C[C@@H]1NC(=O)[C@H](CCC(=O)O)NC(=O)CNC(=O)[C@H](CC(=O)O)NC(=O)CNC(=O)[C@H](CCCCNC(=O)CCCCCNC(=O)[C@H](CS)NC(=O)CCCCCNC(=O)CN2CCN(CC(=O)O)CCN(CC(=O)O)CCN(CC(=O)O)CC2)NC(=O)[C@@H](Cc2ccc(O)cc2)NC1=O [gallium-68 labelled] — soluble radioactivity (mouse serum; concentration not given, 1.5 h, 37 °C, 90% serum): 87%
CCCC[C@H](NC(=O)CNC(=O)[C@H](CO)NC(=O)CNC(=O)c1ccc(NN)nc1)C(=O)N[C@H]1CC(=O)NCCCC[C@@H](C(N)=O)NC(=O)[C@H](Cc2c[nH]c3ccccc23)NC(=O)[C@H](CCCNC(=N)N)NC(=O)[C@@H](Cc2ccccc2)NC(=O)[C@H](Cc2c[nH]cn2)NC1=O [technetium-99m labelled] — uptake ratio (C57 mouse, B16/F1 melanoma; 2 h; baseline: tumour over muscle): 147
CCCC[C@H](NC(=O)CNC(=O)CNC(=O)c1ccc(NN)nc1)C(=O)N[C@H]1CC(=O)NCCCC[C@@H](C(N)=O)NC(=O)[C@H](Cc2c[nH]c3ccccc23)NC(=O)[C@H](CCCNC(=N)N)NC(=O)[C@@H](Cc2ccccc2)NC(=O)[C@H](Cc2c[nH]cn2)NC1=O [technetium-99m labelled] — tissue uptake (C57 mouse, B16/F1 melanoma-bearing, heart; intravenous, 24 h): 0.02 ± 0.02 %ID/g
